Results of several laboratories.
Lines come from different studies, so protocols differ. ± marks the error that the study gave.
Target: ATP-dependent translocase ABCB1 (ABCB1, Homo sapiens, UniProt P08183)
UniProt P08183, sequence (whole entry, looked up): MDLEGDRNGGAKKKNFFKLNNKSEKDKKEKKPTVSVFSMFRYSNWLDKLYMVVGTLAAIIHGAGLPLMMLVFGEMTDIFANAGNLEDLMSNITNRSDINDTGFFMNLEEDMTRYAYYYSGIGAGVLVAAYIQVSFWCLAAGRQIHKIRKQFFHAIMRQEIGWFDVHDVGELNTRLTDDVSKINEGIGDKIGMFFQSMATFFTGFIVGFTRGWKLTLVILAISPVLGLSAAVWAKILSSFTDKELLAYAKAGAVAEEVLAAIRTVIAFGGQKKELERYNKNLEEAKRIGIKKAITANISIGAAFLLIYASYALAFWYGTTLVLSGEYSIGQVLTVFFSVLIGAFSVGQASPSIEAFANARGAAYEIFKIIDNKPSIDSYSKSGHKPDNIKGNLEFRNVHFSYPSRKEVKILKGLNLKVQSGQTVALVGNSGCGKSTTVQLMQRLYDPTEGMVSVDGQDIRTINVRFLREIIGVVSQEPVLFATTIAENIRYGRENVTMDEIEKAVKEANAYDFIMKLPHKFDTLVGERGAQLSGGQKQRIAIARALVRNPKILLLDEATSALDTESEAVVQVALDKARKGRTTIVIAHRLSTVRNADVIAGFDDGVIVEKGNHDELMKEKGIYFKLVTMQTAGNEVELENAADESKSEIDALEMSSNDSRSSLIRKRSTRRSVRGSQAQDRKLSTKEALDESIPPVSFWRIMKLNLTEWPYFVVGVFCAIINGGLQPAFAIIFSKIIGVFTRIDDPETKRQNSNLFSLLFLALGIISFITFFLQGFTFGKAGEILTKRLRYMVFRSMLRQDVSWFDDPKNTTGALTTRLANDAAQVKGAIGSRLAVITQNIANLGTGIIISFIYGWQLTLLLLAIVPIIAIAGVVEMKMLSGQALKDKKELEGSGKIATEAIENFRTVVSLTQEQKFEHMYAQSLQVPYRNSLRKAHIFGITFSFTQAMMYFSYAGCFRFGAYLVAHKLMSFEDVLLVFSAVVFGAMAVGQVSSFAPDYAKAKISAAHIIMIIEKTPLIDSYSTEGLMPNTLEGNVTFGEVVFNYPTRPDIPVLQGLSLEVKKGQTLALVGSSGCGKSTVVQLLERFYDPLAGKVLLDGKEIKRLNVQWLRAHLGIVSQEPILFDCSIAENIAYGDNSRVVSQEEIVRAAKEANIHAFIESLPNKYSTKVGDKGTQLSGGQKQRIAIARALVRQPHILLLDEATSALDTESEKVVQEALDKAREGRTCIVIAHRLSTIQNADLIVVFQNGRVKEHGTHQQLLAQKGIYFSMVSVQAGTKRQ

`Cc1cc(Nc2ncnc3ccc(NC4=NC(C)(C)CO4)cc23)ccc1Oc1ccn2ncnc2c1` gave an efflux ratio of 0.69 ± 0.04 (bidirectional transwell permeability; MDCKII cells transfected with ABCB1; 1 µM, 1 h, pH 7.4, added: elacridar 0.5 µM).
The efflux ratio of `Cc1cc(S(=O)(=O)N[C@H]2CC[C@H](CN3CCN(c4cccc(NC5CCC(=O)NC5=O)c4)CC3)CC2)ccc1Nc1ncc(C(F)(F)F)c(N2CCC[C@](C)(O)C2)n1` (some centres unmarked) is reported as 54 (bidirectional transport; MDCK cells expressing ABCB1; 1 µM, 120 min, pH 7.4).
The IC50 of `O=c1[nH]c(=O)c(Cc2cccc(C(F)(F)F)c2)c([C@H]2CC[C@H](c3ccccc3)CC2)[nH]1` is reported as > 5 µM (transport, inhibitor; inside-out membrane vesicles; added: N-methyl-quinidine).
`Cc1cc(S(=O)(=O)NC2CC(N3CCN(CC4CCN(c5cccc6c5n(C)c(=O)n6C5CCC(=O)NC5=O)CC4)C4(CC4)C3)C2)ccc1Nc1ncc(C(F)(F)F)c(N2CCC[C@](C)(O)C2)n1` (some centres unmarked) gave an efflux ratio of 41 (bidirectional transport; MDCK cells expressing ABCB1; 1 µM, 120 min, pH 7.4).
`C[C@H]1O[C@@H](O[C@H]2[C@@H](O)C[C@H](O[C@H]3[C@@H](O)C[C@H](O[C@H]4CC[C@@]5(C)[C@H](CC[C@@H]6[C@@H]5C[C@@H](O)[C@]5(C)[C@@H](C7=CC(=O)OC7)CC[C@]65O)C4)O[C@@H]3C)O[C@@H]2C)C[C@H](O)[C@@H]1O` — result for “Papp (B to A)”: 4.3 ± 0.9 ×10⁻⁶ cm/s (substrate; human EpiIntestinal microtissues; 5 µM, 2 h, added: zosuquidar 5 µM).
For `CCOc1cc2ncc(C#N)c(Nc3ccc(OCc4ccccn4)c(Cl)c3)c2cc1NC(=O)/C=C/CN(C)C`, the Papp A-B was 0.39 ± 0.23 ×10⁻⁶ cm/s (bidirectional transwell permeability; MDCKII cells transfected with ABCB1; 1 µM, 1 h, pH 7.4).
`CC1(C)CCC2(CC1)N[C@@H](C(=O)N[C@@H]1CC[C@@H](C(N)=O)OC1)[C@H](c1ccnc(Cl)c1F)[C@]21C(=O)Nc2cc(Cl)ccc21`: “Papp A to B” 1.13 ×10⁻⁶ cm/s (Caco-2 monolayers; 1 µM, 120 min, no inhibitor).
The Papp A-B of `C=CC(=O)N1CCN(c2nc(=O)n(-c3c(C)ccnc3C(C)C)c3nc(-c4c(O)cccc4F)c(F)cc23)[C@@H](C)C1` is reported as 0.6 ×10⁻⁶ cm/s (MDCK-MDR1).
With `CC[C@H]1[C@@H](O)[C@@H]2[C@H](CC[C@]3(C)[C@@H]([C@H](C)CCNC(=O)NS(=O)(=O)c4ccc(C(C)(C)C)cc4)CC[C@@H]23)[C@@]2(C)CC[C@@H](O)C[C@@H]12` the Tlast was 88.8 h (human, plasma; geometric mean, added: quinidine).
`Cc1cc(S(=O)(=O)N[C@H]2CC[C@H](CN3CCN(c4ccc(C5CCC(=O)NC5=O)c(Cl)c4)CC3)CC2)ccc1Nc1ncc(C(F)(F)F)c(N2CCC[C@](C)(O)C2)n1` (some centres unmarked) has an efflux ratio of > 54 (bidirectional transport; MDCK cells expressing ABCB1; 1 µM, 120 min, pH 7.4).
The Papp A-B of `C[C@]12CCCN1CC1=NNC(=O)c3cc(F)cc4[nH]c2c1c34` is reported as 26.6 ×10⁻⁶ cm/s (MDCKII-MDR1; 1 µM, added: verapamil 100 µM).
`C=CC(=O)N1CC2(CCN(c3nc4c(c(-c5cc(O)cc6ccccc56)c3C)COC(C)(C)C4)C2)C1` has an efflux ratio of 26.
For `C[C@@H]1C(=O)C[C@H]2[C@@H](/C1=C/C[C@H]1[C@]3(C)CC[C@H](O)C(C)(C)O[C@H]3CC[C@]1(C)O)C(C)(C)CC[C@]2(C)O`, “intracellular calcein accumulation” read “no effect” (inhibitor; KB-V1; up to 100 µM; baseline: untreated).
`CN(CCC(=O)O)C(=O)c1ccc2c(c1)CC[C@@H]1[C@@H]2CC[C@]2(C)C(c3cncc(F)c3)=CC[C@@H]12` has an IC50 of 21 µM (transport, inhibitor).

Some of these lines once more:
`CN(CCC(=O)O)C(=O)c1ccc2c(c1)CC[C@@H]1[C@@H]2CC[C@]2(C)C(c3cncc(F)c3)=CC[C@@H]12` has an IC50 of 21 µM (transport, inhibitor).
